Measured values gathered from unrelated publications.
Observed: cell growth or viability

For CNc1ncc2c(/C=C/C(=O)N3CCC(OC)CC3)nn(Cc3ccc(C(F)(F)F)cc3)c2n1, the EC50 was 1.07 µM (FLO-1; resazurin; 5 days).
OCc1ccc(-c2nn(CCc3ccccc3)c3ccccc23)o1 has an inhibition of 73% (RBE; ATP luminescence; 46 µM, 72 h).
For CS(=O)(=O)NCCCNCc1ccc(-c2cccc(-c3nc4cc(C(F)(F)F)ccc4[nH]3)c2)cc1, the IC50 was over 10 µM (HEK293).
The EC50 of CN(C)C1CCCN(C(=O)/C=C/c2nn(CC3CCCC3)c3ncnc(N)c23)C1 (stereo not drawn) is reported as over 30 µM (FLO-1; resazurin; 5 days).
N#Cc1ccc(N[C@@H](CC2CCCCC2)C(=O)N[C@@H]2CCCc3ccccc32)c2ccccc12 gave an IC50 of over 10 µM (HEK293).
C=C(COCc1ccc(F)cc1)[C@@H]1CC[C@@H](C)C[C@H]1OCc1ccc(F)cc1 gave an inhibition of 24% (A2780; MTT; 10 µM, 72 h).
For Cc1c(Cc2ccccc2)c(=O)oc2c(C)c(OCC(=O)NN=Cc3ccccc3)ccc12, the viability was 11% (PC-3; MTT; 500 µg/mL).
With CC(=O)Nc1ccc(Oc2nnc(-c3ccc(Cl)cc3)c3ccccc23)cc1 the cell death was 20.6% (MCF7; MTT; 78 nM).
The EC50 of Nc1ncnc2c1c(/C=C/C(=O)N1CCCC1)nn2CC1CCCC1 is reported as over 30 µM (FLO-1; resazurin; 5 days).
O=C(C=Cc1ccccc1)Nc1ccc(Oc2nnc(-c3ccc(Cl)cc3)c3ccccc23)cc1 gave a viability of 100% (MCF7; MTT; 0.312 µM, 24 h).
The IC50 of CCCCCCCc1c(C)[nH]c2cc(OC)ccc2c1=O is reported as over 10 µM (HEK293).
CC(=NNC(=O)c1ccccc1)c1ccc(Nc2nnc(-c3ccc(Cl)cc3)c3ccccc23)cc1 has a cell death of 94.8% (MCF7; MTT; 5 µM).
For Cc1cn(-c2cc(NC(=O)c3ccc(C)c(Nc4nccc(-c5cccnc5)n4)c3)cc(C(F)(F)F)c2)cn1, the IC50 was over 10 µM (MB002; 7 days).
With O=C(Nc1ccccc1)Nc1ccc(Oc2nnc(-c3ccc(Cl)cc3)c3ccccc23)cc1 the viability was 4.6% (MCF7; MTT; 0.625 µM, 24 h).
With Cc1[nH]c(C)c(-c2ccc(CCc3ccc(N)cc3)cc2)c(=O)c1Cl the IC50 was over 10 µM (HEK293).
With Cc1c(Cc2ccccc2)c(=O)oc2c(C)c(OCC(=O)NN=Cc3ccc(Cl)cc3)ccc12 the viability was 35.1% (PC-3; MTT; 125 µg/mL).
CC(=NNC(N)=S)c1ccc(Nc2nnc(-c3ccc(Cl)cc3)c3ccccc23)cc1 gave a cell death of 90.3% (MCF7; MTT; 10 µM).
CCc1c(C)c2ccc(OCC(=O)NN=Cc3ccc([N+](=O)[O-])cc3)cc2oc1=O has a viability of 8.06% (PC-3; MTT; 250 µg/mL).
With CC(=NNC(=O)c1ccncc1)c1ccc(Nc2nnc(-c3ccc(Cl)cc3)c3ccccc23)cc1 the cell death was 93.3% (MCF7; MTT; 5 µM).
With Cc1cccc(Cn2nc(-c3ccc(CO)o3)c3ccccc32)c1 the inhibition was 73% (RBE; ATP luminescence; 46 µM, 72 h).
CC(=NNC(=O)c1ccccc1Cl)c1ccc(Nc2nnc(-c3ccc(Cl)cc3)c3ccccc23)cc1 has a viability of 23% (MCF7; MTT; 2.5 µM, 24 h).
The viability of Cc1ccc(C(CS(=O)(=O)c2ccccc2)=NNc2nc(-c3ccc(OCCCCOc4ccc(-c5csc(NN=C(CS(=O)(=O)c6ccccc6)c6ccc(C)cc6)n5)cc4)cc3)cs2)cc1 is reported as 37.9% (WM 266-4; MTT; 100 µM, 48 h).
CCC(=CCc1c(O)cc2c(c1O)C(=O)C[C@H](c1ccccc1O)O2)CC has an inhibition of 9.5% (HeLa; MTT; 15 µM, 48 h).
With C[C@@H]1CC[C@@H]([C@](O)(CNCc2cccc3ccccc23)COCc2ccccc2)[C@H](OCc2ccccc2)C1 the inhibition was 97.3% (HeLa; MTT; 30 µM, 72 h).
